Experimental data collected from several papers.
Every numbered part comes from another study and shows a few of its results, in no order. Positions count from the first letter of the parent shown.

Series 1
Target: RING finger protein unkempt homolog, zinc fingers 1-6, GST-SBP tag (UNK, Homo sapiens, UniProt Q9C0B0, residues 30-357)
Technique: RNA Bind-n-Seq
Molecule type: RNA
Medium: in vitro
Tested at: not given
Notes: RNA with constant flanks, human and mouse sites, ends assumed
Baseline: input RNA pool
Direction: higher = stronger binding
Shared flanks, not repeated: GGGAGUUCUACAGUCCGACGAUC … CAACAGAGGAUUGAGCAUCA
Construct (chain): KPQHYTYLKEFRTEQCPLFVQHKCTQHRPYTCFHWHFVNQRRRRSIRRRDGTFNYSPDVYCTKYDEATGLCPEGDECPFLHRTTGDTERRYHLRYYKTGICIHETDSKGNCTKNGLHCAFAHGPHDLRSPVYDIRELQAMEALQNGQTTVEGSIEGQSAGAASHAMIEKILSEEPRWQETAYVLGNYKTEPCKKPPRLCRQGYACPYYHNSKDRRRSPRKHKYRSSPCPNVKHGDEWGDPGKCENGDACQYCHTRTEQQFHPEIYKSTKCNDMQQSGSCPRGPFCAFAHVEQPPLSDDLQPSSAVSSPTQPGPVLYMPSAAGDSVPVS
Strand | bound/input enrichment [ratio]
AAAAGAUCUAAUCCUCAAGUUGGUGUAGCCUUCCCUUACAUUAAGGACGCCUAUGAGUGUUUAGUUUAUGUGCAGCUGCCUUUCAUGGAAGACUUGCGGCAAUACAUGUUUUCCUCGCUG | 0.405
GACAGCAGUAGGGAAAUUAGGUGCAGAAUGUUAAGUUCAACCACGGGGCUUUCACCAGGUUAGGUUGUCAAACUCCCCAACAUUGGCAGCUACUGUUUGGGUGGACCCCACACUUGCCUG | 0.527
GCCUCUGUCCCCCAGUGAUCGGAUCAAGGCGCUGAGCGAGGCCCUGCCUGCGGGGCGGCCAUGCGGCGGUGACAGGAGCGCGACCGACACGCACGGGCCCCUCGCCCCCUCUCGCCUCCC | 0.0878
GGACAUCAAUGCAAGCCUGAAGAAAAAGUAAUUGCUUCCUUUUAAGCCAUGGCCUAUCAGUUAUACAGAAAUACAACUUUGGGGAACAGUCUUCAAGAGAGCCUUGAUGAGCUCAUACAG | 0.249
GAAGGUUUCUUUACCAACGGUUUGACUCUUGGCGCGAAGAAAUGCUCAGUGAUCAGAGAUAGUCUAUACGUCGAUGGUGACUGCACAAUGGACAUCCGGACAAAGAGUCAAGGUGGGGAG | 0.172
GGAGAAAAUAAACAAACCACGGUGUCCAACUCCCAGCAGGCUUACCAAGAAGCAUUUGAAAUCAGCAAGAAAGAAAUGCAGCCUACACACCCGAUUCGCCUCGGCCUGGCGCUGAAUUUC | 0.184
AAAUGCCACCCACAUUCAAAGACACAGGUGCAGCAGUUUGGGAAGAUGGUGAGUUGGAAGAAGGUGAACUGGAAGACGACGGGGCUGAGGAGGUCCAGGACCCCCCUGGAGGACAAGAGA | 0.38
GAAUUACAACCAUAAAAUGUGUAAUGUUUUGAACAGUAUUCUGUUGGGAUGGAGAUUUUAUAGGUUCAGACAAAUCUUCUAGAUCUGCUUCACCCAGCAUAUUUUCUAUUCAGUGAUAUA | 0.181

Series 2
Target: ABI1, truncated, D143A, DHFR fusion (Arabidopsis thaliana)
Technique: DHFR PCA, deep sequencing
Medium: yeast
Notes: methotrexate growth selection, single substitutions
With: (+)-ABA 0 µM
Baseline: wild-type fitted maximum
Direction: higher = stronger binding
Parent: PYL1, truncated, DHFR fusion (Arabidopsis thaliana); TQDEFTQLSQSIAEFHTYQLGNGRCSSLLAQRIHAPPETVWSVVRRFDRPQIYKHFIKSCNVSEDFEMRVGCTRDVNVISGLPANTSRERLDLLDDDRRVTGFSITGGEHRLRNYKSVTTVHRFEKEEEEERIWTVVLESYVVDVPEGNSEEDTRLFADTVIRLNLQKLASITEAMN; partner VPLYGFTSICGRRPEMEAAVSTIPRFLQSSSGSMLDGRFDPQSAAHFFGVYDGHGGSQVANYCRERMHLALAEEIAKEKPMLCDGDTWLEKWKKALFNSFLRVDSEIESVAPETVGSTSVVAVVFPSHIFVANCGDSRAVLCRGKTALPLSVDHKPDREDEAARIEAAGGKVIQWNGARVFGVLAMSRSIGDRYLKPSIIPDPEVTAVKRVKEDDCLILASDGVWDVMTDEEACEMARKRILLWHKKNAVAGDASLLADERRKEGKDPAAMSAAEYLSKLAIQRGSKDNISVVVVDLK
Change | relative binding score
K54F | -0.342%
R49G | 1.54%
F157G | -3.98%
W134V | 16.6%
S104A | 0.838%
H34T | -2.71%
R88E | 8.91%
D92W | 1.37%
D92T | -2.51%
R45I | -1.25%
E89I | 3.7%

Series 3
Target: Histone acetyltransferase KAT6A, both winged helices, GST fusion (KAT6A, Homo sapiens, UniProt Q92794, residues 1-181)
Technique: protein binding microarray
Molecule type: double-stranded DNA, one strand shown
Medium: in vitro
Tested at: not given
Notes: 8-mer, flanks averaged, mean of 2 arrays, mostly near background
Baseline: not given
Direction: higher = stronger binding
Construct (chain): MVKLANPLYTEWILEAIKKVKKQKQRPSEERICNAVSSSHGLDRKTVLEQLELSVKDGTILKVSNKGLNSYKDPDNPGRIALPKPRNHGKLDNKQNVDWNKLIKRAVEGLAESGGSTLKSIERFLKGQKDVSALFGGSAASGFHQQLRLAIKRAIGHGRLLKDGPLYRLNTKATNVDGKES
Strand | E-score
AAAGGACG | 0.0224
CCTTGGAG | -0.135
GGAACACC | -0.0418
CGCTTAAA | 0.101
ATCAATAG | -0.177
CACAAGTA | -0.166
GAACGTCA | 0.0163
CATCCGAA | 0.000445
GTAGAGAC | -0.121
AAGATTAT | -0.106
ATCCACTG | -0.0895
CGTCTCCA | 0.133
ACTCGCAT | 0.0414
TGAAATCA | 0.103
CCAGTTCG | 0.006
ATTATGGA | -0.0853
AGGATACC | -0.102
GGTTTGGA | -0.162
AGCGCCCG | 0.249
GGATCCCC | 0.0527
ACAGTCGC | 0.0315
AGACTCAT | -0.0924
CCGACGAG | 0.0833
AGAACAAT | -0.0992
ATATGCTA | -0.129

Series 4
Target: CCNA2, cyclin fold, Cln2 fusion (human)
Technique: yeast growth competition, sequencing
Medium: yeast
Notes: strong parent motif
Baseline: not given
Direction: higher = stronger binding
Parent: ORC1 docking peptide (human); PRARKRLELGNLG; partner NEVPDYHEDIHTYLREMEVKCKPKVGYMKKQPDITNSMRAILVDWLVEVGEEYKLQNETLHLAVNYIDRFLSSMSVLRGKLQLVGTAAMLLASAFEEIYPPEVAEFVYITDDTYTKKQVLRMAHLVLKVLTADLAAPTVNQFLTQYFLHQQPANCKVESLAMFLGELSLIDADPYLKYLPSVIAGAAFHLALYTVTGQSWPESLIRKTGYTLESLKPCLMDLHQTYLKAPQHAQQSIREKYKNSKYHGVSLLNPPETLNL
Change | normalised enrichment score
L7K | 2.15
L7Q | 1.04
E8M | 4.2
L9P | 0.625
A3F | 1.69
G13T | 4.72
R4H | 1.29
E8K | 3.06
G13C | 5.11
L12D | 4.9
N11K | 4.56
L7D | 0.495
G10E | 5.51
N11Y | 5.78
E8S | 3.84
P1T | 4.6
G13A | 5.05
E8T | 2.11
L7P | -1.15
R6L | 1.92
E8I | 3.97
G13N | 5
R2V | 4.07
G13K | 5.07
R2S | 4.7

For quick reference, copied from above (series 2):
Change | relative binding score
E89I | 3.7%
H34T | -2.71%
R88E | 8.91%
K54F | -0.342%
D92W | 1.37%
S104A | 0.838%
R49G | 1.54%
R45I | -1.25%
F157G | -3.98%
W134V | 16.6%
